Measured values from different studies.
Each line is one published result; not all experiments were run side by side. ± marks the error that the study gave.
TGFBR1: TGF-beta receptor type-1 (TGFBR1, Homo sapiens, UniProt P36897)
UniProt P36897, sequence (whole entry, looked up): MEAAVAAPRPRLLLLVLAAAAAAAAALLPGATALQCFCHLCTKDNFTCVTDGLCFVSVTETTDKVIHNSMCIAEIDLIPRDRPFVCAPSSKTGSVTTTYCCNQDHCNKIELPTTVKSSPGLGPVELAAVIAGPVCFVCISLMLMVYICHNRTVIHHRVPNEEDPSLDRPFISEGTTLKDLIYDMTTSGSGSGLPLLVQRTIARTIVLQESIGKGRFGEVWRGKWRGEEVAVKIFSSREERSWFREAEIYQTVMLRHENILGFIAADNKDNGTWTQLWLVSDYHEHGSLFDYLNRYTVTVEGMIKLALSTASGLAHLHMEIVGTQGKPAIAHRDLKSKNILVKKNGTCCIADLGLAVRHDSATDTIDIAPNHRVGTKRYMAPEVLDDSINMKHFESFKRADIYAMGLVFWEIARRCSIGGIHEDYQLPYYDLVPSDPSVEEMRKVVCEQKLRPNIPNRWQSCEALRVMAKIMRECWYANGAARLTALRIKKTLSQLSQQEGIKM
PARP1: Poly [ADP-ribose] polymerase 1 (PARP1, Homo sapiens, UniProt P09874)
UniProt P09874, sequence (whole entry, looked up): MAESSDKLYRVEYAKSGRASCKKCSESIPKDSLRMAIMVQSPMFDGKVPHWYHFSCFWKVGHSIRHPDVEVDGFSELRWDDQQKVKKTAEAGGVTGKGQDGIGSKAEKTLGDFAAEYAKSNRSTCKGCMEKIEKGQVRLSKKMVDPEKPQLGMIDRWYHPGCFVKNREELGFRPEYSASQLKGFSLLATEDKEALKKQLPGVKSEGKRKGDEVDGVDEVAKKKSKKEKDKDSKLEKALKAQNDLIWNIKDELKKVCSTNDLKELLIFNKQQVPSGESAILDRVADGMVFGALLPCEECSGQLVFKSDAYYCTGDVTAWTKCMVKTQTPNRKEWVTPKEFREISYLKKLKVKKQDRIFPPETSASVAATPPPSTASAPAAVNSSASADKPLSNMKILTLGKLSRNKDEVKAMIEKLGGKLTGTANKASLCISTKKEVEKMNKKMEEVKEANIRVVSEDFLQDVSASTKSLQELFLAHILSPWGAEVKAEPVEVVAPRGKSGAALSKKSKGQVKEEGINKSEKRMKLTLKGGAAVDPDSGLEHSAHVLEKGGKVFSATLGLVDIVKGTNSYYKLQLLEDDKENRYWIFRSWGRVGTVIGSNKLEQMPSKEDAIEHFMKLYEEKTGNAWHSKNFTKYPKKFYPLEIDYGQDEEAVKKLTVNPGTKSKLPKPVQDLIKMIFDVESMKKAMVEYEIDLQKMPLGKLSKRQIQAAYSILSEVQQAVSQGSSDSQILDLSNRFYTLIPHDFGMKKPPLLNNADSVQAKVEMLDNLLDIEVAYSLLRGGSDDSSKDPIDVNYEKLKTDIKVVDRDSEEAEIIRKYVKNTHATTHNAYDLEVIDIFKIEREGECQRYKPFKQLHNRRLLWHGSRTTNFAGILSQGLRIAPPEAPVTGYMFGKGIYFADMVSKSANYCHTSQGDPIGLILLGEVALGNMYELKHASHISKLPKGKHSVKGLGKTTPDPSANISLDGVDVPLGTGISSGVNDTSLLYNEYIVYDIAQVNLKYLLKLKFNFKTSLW
TYMS: Thymidylate synthase (TYMS, Homo sapiens, UniProt P04818)
UniProt P04818, sequence (whole entry, looked up): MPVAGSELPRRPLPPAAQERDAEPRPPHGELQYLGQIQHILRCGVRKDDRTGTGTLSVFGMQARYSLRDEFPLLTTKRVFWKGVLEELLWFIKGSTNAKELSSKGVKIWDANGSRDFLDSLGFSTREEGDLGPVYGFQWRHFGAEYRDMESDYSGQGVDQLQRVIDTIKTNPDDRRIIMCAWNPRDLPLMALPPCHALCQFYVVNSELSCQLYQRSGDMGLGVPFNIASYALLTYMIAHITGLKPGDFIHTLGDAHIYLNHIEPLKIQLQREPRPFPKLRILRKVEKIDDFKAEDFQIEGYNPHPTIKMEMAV
Protein lin-28 homolog A: Protein lin-28 homolog A (Mus musculus, UniProt Q8K3Y3)
UniProt Q8K3Y3, sequence (whole entry, looked up): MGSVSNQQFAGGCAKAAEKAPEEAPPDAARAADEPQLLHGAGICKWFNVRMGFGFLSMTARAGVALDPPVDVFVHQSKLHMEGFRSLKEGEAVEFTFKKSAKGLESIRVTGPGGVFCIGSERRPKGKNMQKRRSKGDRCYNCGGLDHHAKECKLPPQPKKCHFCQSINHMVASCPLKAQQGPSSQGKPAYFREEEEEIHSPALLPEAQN
F11: Coagulation factor XI (F11, Homo sapiens, UniProt P03951)
UniProt P03951, sequence (whole entry, looked up): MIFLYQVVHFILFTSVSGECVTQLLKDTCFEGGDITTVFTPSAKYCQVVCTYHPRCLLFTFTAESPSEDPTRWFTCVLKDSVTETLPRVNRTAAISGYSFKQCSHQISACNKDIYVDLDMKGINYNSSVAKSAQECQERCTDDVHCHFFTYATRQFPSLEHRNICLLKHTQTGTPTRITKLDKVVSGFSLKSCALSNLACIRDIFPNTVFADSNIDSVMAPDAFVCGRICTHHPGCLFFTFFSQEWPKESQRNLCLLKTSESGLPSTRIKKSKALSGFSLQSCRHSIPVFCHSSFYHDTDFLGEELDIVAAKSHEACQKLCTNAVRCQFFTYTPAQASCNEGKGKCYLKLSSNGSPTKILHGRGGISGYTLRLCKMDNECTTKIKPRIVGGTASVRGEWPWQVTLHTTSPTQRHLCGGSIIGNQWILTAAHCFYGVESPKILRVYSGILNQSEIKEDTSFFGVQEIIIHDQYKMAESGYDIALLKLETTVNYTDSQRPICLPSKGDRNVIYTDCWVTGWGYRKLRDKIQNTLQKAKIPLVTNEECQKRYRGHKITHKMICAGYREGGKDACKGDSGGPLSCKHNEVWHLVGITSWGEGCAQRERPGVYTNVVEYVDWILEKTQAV
UniProt P23975, sequence (whole entry, looked up): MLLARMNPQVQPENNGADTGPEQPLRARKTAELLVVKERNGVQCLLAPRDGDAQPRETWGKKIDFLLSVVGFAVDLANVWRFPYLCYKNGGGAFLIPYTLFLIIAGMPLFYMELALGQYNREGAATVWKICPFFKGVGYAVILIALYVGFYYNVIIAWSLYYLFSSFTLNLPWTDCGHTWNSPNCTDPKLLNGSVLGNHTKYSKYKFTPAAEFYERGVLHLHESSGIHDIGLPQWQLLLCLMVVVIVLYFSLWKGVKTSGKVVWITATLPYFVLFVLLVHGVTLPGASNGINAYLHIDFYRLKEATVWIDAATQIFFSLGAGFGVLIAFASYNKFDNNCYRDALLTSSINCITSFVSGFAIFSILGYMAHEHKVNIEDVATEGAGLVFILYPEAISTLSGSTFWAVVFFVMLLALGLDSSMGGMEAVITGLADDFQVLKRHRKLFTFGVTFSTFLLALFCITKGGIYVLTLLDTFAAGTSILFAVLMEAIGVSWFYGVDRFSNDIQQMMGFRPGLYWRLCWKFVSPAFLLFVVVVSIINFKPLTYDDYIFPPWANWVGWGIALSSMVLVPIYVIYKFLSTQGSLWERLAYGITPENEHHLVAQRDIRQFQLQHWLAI
UniProt Q8NB16, sequence (whole entry, looked up): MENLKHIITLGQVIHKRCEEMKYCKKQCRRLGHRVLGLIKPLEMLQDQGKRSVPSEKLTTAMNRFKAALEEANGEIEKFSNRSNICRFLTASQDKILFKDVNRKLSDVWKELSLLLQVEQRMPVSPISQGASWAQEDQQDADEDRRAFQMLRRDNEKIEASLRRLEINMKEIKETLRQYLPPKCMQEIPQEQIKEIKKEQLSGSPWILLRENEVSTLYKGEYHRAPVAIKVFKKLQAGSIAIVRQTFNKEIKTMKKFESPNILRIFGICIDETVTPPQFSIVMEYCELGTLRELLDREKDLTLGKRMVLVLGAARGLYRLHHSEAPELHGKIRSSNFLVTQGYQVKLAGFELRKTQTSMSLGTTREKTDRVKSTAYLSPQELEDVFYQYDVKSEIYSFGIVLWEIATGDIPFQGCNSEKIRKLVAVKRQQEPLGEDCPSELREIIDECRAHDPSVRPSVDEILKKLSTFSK
UniProt O43781, sequence (whole entry, looked up): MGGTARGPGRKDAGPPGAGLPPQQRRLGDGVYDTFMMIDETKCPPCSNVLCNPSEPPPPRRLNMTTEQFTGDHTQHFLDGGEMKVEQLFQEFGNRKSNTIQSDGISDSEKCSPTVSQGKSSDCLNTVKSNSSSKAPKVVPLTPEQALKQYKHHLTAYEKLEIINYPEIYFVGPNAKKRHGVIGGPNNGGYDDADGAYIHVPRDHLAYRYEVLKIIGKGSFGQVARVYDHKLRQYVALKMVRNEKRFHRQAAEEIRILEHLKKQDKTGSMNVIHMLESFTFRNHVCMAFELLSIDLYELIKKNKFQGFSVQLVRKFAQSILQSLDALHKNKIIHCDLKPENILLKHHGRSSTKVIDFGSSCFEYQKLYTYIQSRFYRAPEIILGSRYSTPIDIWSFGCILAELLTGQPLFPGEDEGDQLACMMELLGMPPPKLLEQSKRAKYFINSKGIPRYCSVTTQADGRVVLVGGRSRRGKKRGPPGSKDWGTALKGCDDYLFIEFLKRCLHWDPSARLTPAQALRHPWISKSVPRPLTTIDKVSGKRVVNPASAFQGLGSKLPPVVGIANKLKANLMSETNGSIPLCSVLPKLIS
UniProt Q16769, sequence (whole entry, looked up): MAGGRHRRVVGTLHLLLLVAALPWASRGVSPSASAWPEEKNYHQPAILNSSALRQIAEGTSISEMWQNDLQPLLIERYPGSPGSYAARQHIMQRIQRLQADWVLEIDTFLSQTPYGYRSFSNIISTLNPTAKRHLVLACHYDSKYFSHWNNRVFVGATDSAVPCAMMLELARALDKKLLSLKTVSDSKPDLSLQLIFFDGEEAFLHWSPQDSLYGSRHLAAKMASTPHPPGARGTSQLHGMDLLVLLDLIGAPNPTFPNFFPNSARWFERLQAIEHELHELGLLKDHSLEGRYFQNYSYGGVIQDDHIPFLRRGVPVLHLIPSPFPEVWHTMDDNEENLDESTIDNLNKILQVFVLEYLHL

SMILES	tested on	test	system	conditions	how to read	endpoint	value
Fc1ccc(-c2nc(-c3ccc4ccccc4c3)[nH]c2-c2ccncc2)cc1	TGFBR1	binding, LanthaScreen kinase binding				IC50	> 5 µM
c1cc(CN2CCOCC2)cc(Nc2nccc(NCCc3cnc[nH]3)n2)c1	16-kinase panel	radiometric		1 µM, ATP at Km	below 10% of control	number of kinases inhibited	1
NC(=O)c1cccc2c1O/C(=C\c1ccc(C(=O)NCCn3ncc4ccccc4c3=O)s1)C2=O	PARP1	inhibitor				IC50	0.64 µM
CCCC(C)N1CCC(N(Cc2ccccc2NC(=O)CC)C(=O)Nc2cccc(C(F)(F)F)c2)CC1 (stereo not drawn)	DCN1-like protein 1, PONY domain (Homo sapiens, UniProt Q96GG9)	inhibitor, TR-FRET		preincubation 24 h		IC50	1.46 ± 0.237 µM
Fc1ccc(-c2nc(-c3ccc4c(c3)OCO4)[nH]c2-c2ccncc2)cc1	TGFBR1	binding, LanthaScreen kinase binding				IC50	> 5 µM
NC(=O)c1cccc2c1O/C(=C\c1ccc(C(=O)NC3CC(F)(F)C3)s1)C2=O	PARP1	inhibitor				IC50	0.22 µM
COc1ccc(Oc2ccc(CN(C)Cc3cnc4nc(N)nc(N)c4n3)cc2)cc1	TYMS	inhibitor				IC50	> 100 µM
COc1c(O)c(C)cc2c1C(=O)c1c(cc(O)c(O)c1O)C2=O	HK-2 co-cultured with HepaRG	MTT		33.33 µM, 24 h	baseline: untreated control	viability	97.6 ± 6.95%
CN1CCN(c2ccc(Nc3ncc4cc(C#N)c(=O)n(C5CCCC5)c4n3)cc2)CC1	DYRK3 (Homo sapiens, UniProt O43781)					IC50	6.8 µM
Cn1cnc([N+](=O)[O-])c1SCc1csc2ccccc12	Protein lin-28 homolog A					IC50	15.1 µM
CC[C@@H]1[C@H](F)C(=O)N[C@@H]1COc1nccc2cc(C(N)=O)c(OC)cc12	MLKL (Homo sapiens, UniProt Q8NB16)	ATP-site probe binding, inhibitor, ActivX ATP probe profiling	THP-1 cell lysate	probe site Lys1		IC50	1.5 µM
COc1ccc2c(=O)[nH]c3c(nnn3Cc3ccc(C)cc3)c2c1	PARP4 (Homo sapiens, UniProt Q9UKK3)					IC50	7.41 µM
COc1c(O)cc2c(c1O)C(=O)c1c(cc(C)c(O)c1OC)C2=O	HK-2 co-cultured with HepaRG	MTT		33.33 µM, 24 h	baseline: untreated control	viability	94.9 ± 14.6%
COC(=O)CC1=NN(c2nc3ccccc3[nH]2)C(=O)C1	Protein lin-28 homolog A					IC50	75.8 µM
Cn1cc2c(C(=O)O)ccc(NS(=O)(=O)c3ccc(OCC4CCC4)c(Cl)c3)c2n1	SLC6A2 (Homo sapiens, UniProt P23975)	antagonist				IC50	> 10 µM
Fc1ccc(-c2nc(-c3ccc4ccccc4c3F)[nH]c2-c2ccncc2)cc1	TGFBR1	binding, LanthaScreen kinase binding				IC50	0.152 ± 0.0074 µM
Nc1nc(N)c2nc(CNc3cccc4ccccc34)cnc2n1	TYMS	inhibitor				IC50	> 100 µM
COc1ccc(F)c(CNC(=O)c2cn(Cc3ccc(Cn4ccccc4=O)cc3)nc2CN(C)C)c1F	F11					IC50	> 40 µM
Cc1cncn1Cc1ccccc1	QPCT (Homo sapiens, UniProt Q16769)					IC50	1.82 µM
Cc1cc(Nc2nc(N[C@@H](C)c3ncc(F)cn3)ncc2Cl)n[nH]1	JAK2 (Homo sapiens, UniProt O60674)	enzyme activity, inhibitor				IC50	0.00126 ± 0.0002 µM
Nc1ccccc1-c1nc(-c2ccc(F)cc2)c(-c2ccncc2)[nH]1	TGFBR1	binding, LanthaScreen kinase binding				IC50	> 5 µM
COCc1nn(Cc2ccc(Cn3ccccc3=O)cc2)cc1C(=O)NCc1c(F)ccc(OC)c1F	F11					IC50	> 40 µM
COc1ccc(Oc2ccc(CNCc3cnc4nc(N)nc(N)c4n3)cc2)cc1	TYMS	inhibitor				IC50	> 100 µM
O=C(Nc1cccc(Nc2ncc(Br)c(NCCc3cnc[nH]3)n2)c1)N1CCCC1	16-kinase panel	radiometric		1 µM, ATP at Km	below 10% of control	number of kinases inhibited	1

Excerpt of the above:
SMILES	tested on	test	system	conditions	how to read	endpoint	value
O=C(Nc1cccc(Nc2ncc(Br)c(NCCc3cnc[nH]3)n2)c1)N1CCCC1	16-kinase panel	radiometric		1 µM, ATP at Km	below 10% of control	number of kinases inhibited	1
